{"sequences": {"note": "Amino acid sequences for entries named in this document (tags omitted). Residues count along the entry.", "UniProt P12004, whole entry": "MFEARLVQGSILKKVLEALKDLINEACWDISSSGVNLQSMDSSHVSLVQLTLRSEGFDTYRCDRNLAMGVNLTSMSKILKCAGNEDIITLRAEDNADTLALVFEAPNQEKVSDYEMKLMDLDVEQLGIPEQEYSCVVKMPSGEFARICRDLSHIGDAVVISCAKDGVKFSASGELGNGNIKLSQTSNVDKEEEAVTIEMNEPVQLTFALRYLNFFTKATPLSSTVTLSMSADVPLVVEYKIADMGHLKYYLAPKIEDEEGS", "UniProt P31751, whole entry": "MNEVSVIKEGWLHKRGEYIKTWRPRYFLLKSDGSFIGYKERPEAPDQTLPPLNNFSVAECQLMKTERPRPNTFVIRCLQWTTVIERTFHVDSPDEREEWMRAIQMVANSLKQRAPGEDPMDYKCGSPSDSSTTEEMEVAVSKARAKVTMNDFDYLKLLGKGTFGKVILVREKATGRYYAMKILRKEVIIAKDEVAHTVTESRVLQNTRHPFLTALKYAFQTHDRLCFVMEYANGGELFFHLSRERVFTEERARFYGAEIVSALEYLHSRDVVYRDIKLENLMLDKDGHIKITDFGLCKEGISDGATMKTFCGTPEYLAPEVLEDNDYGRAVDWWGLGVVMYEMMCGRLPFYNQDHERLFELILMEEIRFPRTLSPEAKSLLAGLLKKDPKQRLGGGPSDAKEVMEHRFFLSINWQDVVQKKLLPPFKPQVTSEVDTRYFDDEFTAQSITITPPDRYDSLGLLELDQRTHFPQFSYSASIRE", "UniProt O14907, 9-120 limits assumed": "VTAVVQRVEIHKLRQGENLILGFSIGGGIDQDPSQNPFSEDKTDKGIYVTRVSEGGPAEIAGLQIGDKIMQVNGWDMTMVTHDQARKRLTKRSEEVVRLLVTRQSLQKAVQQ", "UniProt P30405, whole entry, looked up": "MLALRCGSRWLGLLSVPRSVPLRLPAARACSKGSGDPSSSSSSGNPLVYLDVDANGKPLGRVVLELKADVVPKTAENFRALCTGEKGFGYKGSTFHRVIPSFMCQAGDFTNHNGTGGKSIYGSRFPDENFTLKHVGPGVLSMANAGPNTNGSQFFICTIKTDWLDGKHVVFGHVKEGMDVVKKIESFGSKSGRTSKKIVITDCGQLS", "UniProt P05106, 27-788 limits assumed": "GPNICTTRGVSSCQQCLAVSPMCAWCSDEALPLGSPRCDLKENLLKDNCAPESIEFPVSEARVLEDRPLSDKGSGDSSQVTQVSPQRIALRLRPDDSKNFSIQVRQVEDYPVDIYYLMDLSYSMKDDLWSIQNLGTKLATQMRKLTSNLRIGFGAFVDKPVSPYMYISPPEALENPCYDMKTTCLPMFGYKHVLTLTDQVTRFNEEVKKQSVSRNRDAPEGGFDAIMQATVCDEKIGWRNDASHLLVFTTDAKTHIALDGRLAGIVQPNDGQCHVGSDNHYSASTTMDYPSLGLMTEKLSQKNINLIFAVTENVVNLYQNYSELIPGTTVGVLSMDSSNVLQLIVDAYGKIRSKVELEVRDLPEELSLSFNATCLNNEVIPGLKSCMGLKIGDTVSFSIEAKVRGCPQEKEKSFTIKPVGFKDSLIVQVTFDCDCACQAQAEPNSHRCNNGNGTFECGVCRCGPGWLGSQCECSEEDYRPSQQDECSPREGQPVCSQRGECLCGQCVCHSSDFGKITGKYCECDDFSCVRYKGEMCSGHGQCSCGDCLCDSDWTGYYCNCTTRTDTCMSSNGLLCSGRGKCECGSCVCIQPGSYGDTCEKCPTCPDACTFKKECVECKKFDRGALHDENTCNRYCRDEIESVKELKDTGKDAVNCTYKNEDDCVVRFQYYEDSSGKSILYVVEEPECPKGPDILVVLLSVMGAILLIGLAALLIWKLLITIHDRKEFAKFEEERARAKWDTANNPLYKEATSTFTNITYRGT", "UniProt P06756, 31-889 limits assumed": "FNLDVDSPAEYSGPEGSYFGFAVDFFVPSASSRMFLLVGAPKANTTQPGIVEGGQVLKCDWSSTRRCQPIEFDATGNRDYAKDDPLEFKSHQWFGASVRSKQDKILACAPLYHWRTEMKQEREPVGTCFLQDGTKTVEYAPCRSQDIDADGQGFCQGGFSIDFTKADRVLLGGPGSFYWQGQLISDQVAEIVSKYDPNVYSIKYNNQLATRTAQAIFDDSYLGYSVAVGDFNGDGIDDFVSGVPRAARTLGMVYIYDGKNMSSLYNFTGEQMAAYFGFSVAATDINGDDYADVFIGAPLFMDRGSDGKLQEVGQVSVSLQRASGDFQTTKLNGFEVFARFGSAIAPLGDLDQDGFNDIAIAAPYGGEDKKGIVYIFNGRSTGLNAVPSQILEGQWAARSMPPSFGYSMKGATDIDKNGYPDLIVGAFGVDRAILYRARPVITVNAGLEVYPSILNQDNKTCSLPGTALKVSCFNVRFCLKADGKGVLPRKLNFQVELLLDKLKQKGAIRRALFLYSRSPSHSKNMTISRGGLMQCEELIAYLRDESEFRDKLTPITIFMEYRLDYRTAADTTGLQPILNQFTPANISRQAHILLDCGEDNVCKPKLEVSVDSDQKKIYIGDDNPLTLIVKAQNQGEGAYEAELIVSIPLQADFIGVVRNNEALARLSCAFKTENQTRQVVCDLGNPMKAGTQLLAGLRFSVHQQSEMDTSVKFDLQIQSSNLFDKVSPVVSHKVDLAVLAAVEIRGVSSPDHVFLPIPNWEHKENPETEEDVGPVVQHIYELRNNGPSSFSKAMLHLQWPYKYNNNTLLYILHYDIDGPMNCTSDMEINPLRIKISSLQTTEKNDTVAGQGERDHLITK", "UniProt P06756, 891-1048 limits assumed": "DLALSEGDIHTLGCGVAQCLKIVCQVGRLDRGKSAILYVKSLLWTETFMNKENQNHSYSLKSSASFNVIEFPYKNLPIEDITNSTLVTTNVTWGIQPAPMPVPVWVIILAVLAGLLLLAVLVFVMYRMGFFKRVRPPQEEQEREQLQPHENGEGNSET", "UniProt P08253, 110-660 limits assumed": "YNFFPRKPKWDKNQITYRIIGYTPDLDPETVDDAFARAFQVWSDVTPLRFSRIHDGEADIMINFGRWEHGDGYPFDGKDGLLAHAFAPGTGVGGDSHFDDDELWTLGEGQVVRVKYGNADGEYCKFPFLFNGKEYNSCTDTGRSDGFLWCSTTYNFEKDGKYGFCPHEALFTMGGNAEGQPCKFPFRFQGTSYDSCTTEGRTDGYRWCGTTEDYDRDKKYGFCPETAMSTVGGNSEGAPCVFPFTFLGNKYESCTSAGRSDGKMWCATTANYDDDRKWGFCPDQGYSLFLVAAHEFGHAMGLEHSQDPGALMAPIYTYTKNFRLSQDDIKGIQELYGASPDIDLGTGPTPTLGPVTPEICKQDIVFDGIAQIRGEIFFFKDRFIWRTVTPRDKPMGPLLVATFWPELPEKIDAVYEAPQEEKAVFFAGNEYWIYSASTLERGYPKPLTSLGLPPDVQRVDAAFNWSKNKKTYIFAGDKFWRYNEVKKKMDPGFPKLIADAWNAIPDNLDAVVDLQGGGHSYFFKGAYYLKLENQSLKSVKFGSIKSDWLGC", "UniProt Q01727, whole entry": "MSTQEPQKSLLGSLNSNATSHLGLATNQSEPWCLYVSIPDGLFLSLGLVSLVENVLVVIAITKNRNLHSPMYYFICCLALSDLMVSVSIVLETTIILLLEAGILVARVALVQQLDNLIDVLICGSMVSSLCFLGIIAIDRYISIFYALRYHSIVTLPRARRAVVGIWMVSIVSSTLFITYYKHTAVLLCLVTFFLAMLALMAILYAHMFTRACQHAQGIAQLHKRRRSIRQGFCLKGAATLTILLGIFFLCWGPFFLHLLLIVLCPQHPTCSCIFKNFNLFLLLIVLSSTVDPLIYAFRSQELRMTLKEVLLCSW", "UniProt P22629, 25-183 limits assumed": "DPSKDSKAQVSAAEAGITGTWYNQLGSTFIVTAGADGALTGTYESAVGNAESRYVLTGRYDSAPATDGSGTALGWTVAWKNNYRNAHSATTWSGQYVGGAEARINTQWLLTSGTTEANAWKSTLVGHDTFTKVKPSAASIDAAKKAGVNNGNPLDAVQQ"}, "data": "Literature values, collected from citations in different studies", "PCNA": "Proliferating cell nuclear antigen (PCNA, Homo sapiens, UniProt P12004)", "note": "Numbers after ± are the reported error."}
{"SMILES": "CC(C)C[C@@H](NC(=O)[C@@H](CCCCN)NC(=O)[C@H](NC(=O)[C@@H](CCCCN)NC(=O)[C@H](N)Cc1c[nH]c2ccccc12)C(C)C)C(N)=O", "target": "RAC-beta serine/threonine-protein kinase, phosphorylated (AKT2, Homo sapiens, UniProt P31751)", "assay": "binding, binder", "system": "p-Ser474 epitope peptide", "setting": "near p-Ser474 site", "endpoint": "EC50", "value": "3600 nM"}
{"SMILES": "CC[C@H](C)[C@H](NC(=O)[C@@H](NC(=O)[C@H](CO)NC(=O)[C@@H](NC(=O)[C@@H]1CCCN1C(=O)[C@H](Cc1c[nH]c2ccccc12)NC(=O)[C@H](CCCNC(=N)N)NC(=O)[C@H](CO)NC(=O)[C@H](CC(N)=O)NC(=O)[C@H](C)NC(=S)Nc1ccc2c(c1)C(=O)OC21c2ccc(O)cc2Oc2cc(O)ccc21)[C@@H](C)O)[C@@H](C)CC)C(=O)O", "target": "Tax1-binding protein 3, PDZ domain (TAX1BP3, Homo sapiens, UniProt O14907)", "assay": "binding, fluorescence polarization", "setting": "fluorescent reporter peptide", "endpoint": "Kd", "value": "200 nM"}
{"SMILES": "CC[C@H](C)[C@H](NC(=O)[C@H](CCCCN)NC(=O)[C@H](CO)NC(=O)[C@H](CC(=O)O)NC(=O)[C@H](CCCCN)NC(=O)[C@H](CCCCN)NC(=O)CNC(=O)[C@H](Cc1c[nH]cn1)NC(=O)[C@@H](N)CCC(N)=O)C(=O)N[C@H](C(=O)N[C@@H](CC(=O)O)C(=O)N[C@@H](Cc1c[nH]cn1)C(=O)N[C@@H](Cc1ccccc1)C(=O)N[C@@H](CCSC)C(=O)N[C@@H](CCCNC(=N)N)C(=O)N[C@@H](CC(C)C)C(=O)N1CCC[C@H]1C(=O)N[C@@H](CCCCN)C(=O)N[C@@H](C)C(=O)O)[C@@H](C)O", "target": "PCNA", "assay": "binding", "endpoint": "Kd", "value": "3300 nM"}
{"SMILES": "CSc1ccccc1[C@H]1CCCN1C(=O)CNC(=O)NCc1ccc(N)cc1", "target": "PPIF (Homo sapiens, UniProt P30405)", "endpoint": "Kd", "value": "285 nM"}
{"SMILES": "N=C(N)NCCC[C@@H]1NC(=O)[C@H](CCCCNC(=O)CCOCCOCCOCCOCCNC(=O)CC[C@H](NC(=O)CCOCCOCCOCCOCCNC(=O)c2ccc(NN)nc2)C(=O)NCCOCCOCCOCCOCCC(=O)NCCCC[C@@H]2NC(=O)[C@@H](Cc3ccccc3)NC(=O)[C@H](CC(=O)O)NC(=O)CNC(=O)[C@H](CCCNC(=N)N)NC2=O)NC(=O)[C@@H](Cc2ccccc2)NC(=O)[C@H](CC(=O)O)NC(=O)CNC1=O", "target": "Integrin alpha-V/beta-3 (Homo sapiens, UniProt P05106+P06756)", "assay": "binding", "endpoint": "IC50", "value": "51 ± 7 nM"}
{"SMILES": "CC(C)C[C@H](NC(=O)[C@@H]1CCCN1)C(=O)NCC(=O)N[C@H](C(=O)N[C@@H](CCCNC(=N)N)C(=O)O)C(C)C", "target": "MMP2 (Homo sapiens, UniProt P08253)", "assay": "substrate", "endpoint": "Km", "value": "290 µM"}
{"SMILES": "CC[C@H](C)[C@H](NC(=O)[C@H](CCCCN)NC(=O)[C@H](CCCNC(=N)N)NC(=O)[C@H](CCSC)NC(=O)[C@H](CO)NC(=O)[C@@H](N)CO)C(=O)N[C@@H](CS)C(=O)N[C@H](C(=O)N[C@@H](Cc1ccc(O)cc1)C(=O)N[C@@H](Cc1ccccc1)C(=O)N[C@@H](Cc1c[nH]cn1)C(=O)N[C@@H](CCCNC(=N)N)C(=O)N[C@@H](CCCCN)C(=O)N[C@@H](CO)C(=O)O)[C@@H](C)O", "target": "PCNA", "assay": "binding", "endpoint": "Kd", "value": "57 nM"}
{"SMILES": "CCCC[C@@H]1NC(=O)[C@@H](NC(=O)[C@H](CCC(=O)O)NC(=O)CNC(=O)CN2CCN(CC(=O)O)CCN(CC(=O)O)CCN(CC(=O)O)CC2)CCCCNC(=O)C[C@@H](C(N)=O)NC(=O)[C@H](C(C)C)NC(=O)[C@@H]2CCCN2C(=O)[C@H](CCCNC(=N)N)NC(=O)CNC(=O)[C@H](Cc2c[nH]c3ccccc23)NC(=O)[C@H](CCCNC(=N)N)NC(=O)[C@@H](Cc2ccccc2)NC(=O)[C@H](Cc2c[nH]cn2)NC(=O)[C@H](CCC(=O)O)NC1=O [isotope labelled]", "target": "Mc1r (Mus musculus, UniProt Q01727)", "assay": "receptor binding", "system": "B16-F1", "endpoint": "IC50", "value": "0.8 nM"}
{"SMILES": "CC[C@H](C)[C@H](NC(=O)[C@H](CO)NC(=O)[C@@H](NC(=O)[C@H](CCC(N)=O)NC(=O)[C@H](CCCNC(=N)N)NC(=O)[C@H](CC(N)=O)NC(=O)[C@H](C)NC(=O)[C@@H](N)CCCCN)C(C)C)C(=O)N[C@H](C(=O)NCC(=O)N[C@@H](Cc1ccccc1)C(=O)N[C@@H](Cc1ccccc1)C(=O)N[C@@H](CCC(N)=O)C(=O)N[C@@H](CCCNC(=N)N)C(=O)N[C@@H](CCCCN)C(=O)O)[C@@H](C)O", "target": "PCNA", "assay": "binding", "endpoint": "Kd", "value": "15600 nM"}
{"SMILES": "CC[C@H](C)[C@H](NC(=O)[C@@H](NC(=O)[C@H](CO)NC(=O)[C@@H](NC(=O)[C@H](CCC(N)=O)NC(=O)[C@H](Cc1c[nH]c2ccccc12)NC(=O)[C@H](CCCNC(=N)N)NC(=O)[C@H](CO)NC(=O)[C@H](CC(N)=O)NC(=O)[C@H](C)NC(=S)Nc1ccc2c(c1)C(=O)OC21c2ccc(O)cc2Oc2cc(O)ccc21)[C@@H](C)O)[C@@H](C)CC)C(=O)O", "target": "GOPC (Homo sapiens, UniProt Q9HD26)", "assay": "binding, fluorescence polarization", "setting": "fluorescent reporter peptide", "endpoint": "Kd", "value": "1030 nM"}
{"SMILES": "NC(=O)CC[C@H](NC(=O)[C@@H]1CCCN1C(=O)[C@@H](N)Cc1c[nH]cn1)C(=O)O", "target": "Streptavidin (Streptomyces avidinii, UniProt P22629)", "endpoint": "Kd", "value": "> 100000 nM"}
{"note": "Excerpt of the above:"}
{"SMILES": "CC[C@H](C)[C@H](NC(=O)[C@@H](NC(=O)[C@H](CO)NC(=O)[C@@H](NC(=O)[C@@H]1CCCN1C(=O)[C@H](Cc1c[nH]c2ccccc12)NC(=O)[C@H](CCCNC(=N)N)NC(=O)[C@H](CO)NC(=O)[C@H](CC(N)=O)NC(=O)[C@H](C)NC(=S)Nc1ccc2c(c1)C(=O)OC21c2ccc(O)cc2Oc2cc(O)ccc21)[C@@H](C)O)[C@@H](C)CC)C(=O)O", "target": "Tax1-binding protein 3, PDZ domain (TAX1BP3, Homo sapiens, UniProt O14907)", "assay": "binding, fluorescence polarization", "setting": "fluorescent reporter peptide", "endpoint": "Kd", "value": "200 nM"}
